# Published values of several laboratories.
# Lines come from different studies, so protocols differ.
# Organism: Escherichia coli
Structure (SMILES),assay,system,conditions,scale,MIC
CC1(C)CC[C@]2(C(=O)O)CC[C@]3(C)C(=CC[C@@H]4[C@@]5(C)CC[C@H](O)C(C)(C)[C@@H]5CC[C@]43C)[C@@H]2C1,,BL21 pET28a-OXA-1,,,512 µg/mL
CC[C@H](C)[C@H](NC(=O)[C@H](CCCNC(=N)N)NC(=O)[C@H](CCCNC(=N)N)NC(=O)[C@H](CCCNC(=N)N)NC(=O)[C@H](CCCNC(=N)N)NC(=O)[C@H](CC(C)C)NC(=O)[C@H](CCCNC(=N)N)NC(=O)[C@H](CO)NC(=O)[C@@H](N)CO)C(=O)N[C@H](C(=O)N[C@@H](CC(C)C)C(=O)N[C@@H](CCCNC(=N)N)C(=O)N[C@@H](CCCNC(=N)N)C(=O)N[C@@H](CCCNC(=N)N)C(=O)N[C@@H](CCCNC(=N)N)C(=O)N[C@@H](Cc1ccccc1)C(=O)N[C@@H](CO)C(=O)N[C@@H](C)C(=O)N[C@@H](Cc1ccc(O)cc1)C(N)=O)C(C)C,checkerboard,,"24 h, 37 °C, alone, azithromycin plate",,32 µM
CC[C@H](C)[C@H](N)C(=O)N[C@@H](CC(C)C)C(=O)NCC(=O)N[C@@H](CCCNC(=N)N)C(=O)N[C@H](C(=O)N[C@@H](Cc1c[nH]c2ccccc12)C(=O)N[C@@H](CCCCN)C(=O)NCC(=O)N[C@H](C(=O)N[C@@H](CCCCN)C(=O)N[C@@H](CC(=O)O)C(=O)N[C@H](C(=O)N[C@@H](CC(C)C)C(N)=O)[C@@H](C)CC)[C@@H](C)CC)[C@@H](C)CC,broth microdilution,"ATCC 25922, Mueller-Hinton broth","16 h, 37 °C",,6.25 µM
CC[C@H](C)[C@H](NC(=O)[C@H](CCCCN)NC(=O)[C@H](Cc1c[nH]c2ccccc12)NC(=O)[C@H](Cc1c[nH]c2ccccc12)NC(=O)[C@H](CCCCN)NC(=O)[C@H](CCCCN)NC(=O)[C@H](CCCCN)NC(=O)[C@H](Cc1c[nH]c2ccccc12)NC(=O)[C@H](CCCCN)NC(=O)[C@H](CCCCN)NC(=O)[C@H](Cc1c[nH]c2ccccc12)NC(=O)[C@H](CCCCN)NC(=O)[C@H](CCCCN)NC(=O)[C@@H](NC(=O)[C@@H](NC(=O)[C@H](CCCCN)NC(=O)[C@@H](N)CCCNC(=N)N)[C@@H](C)CC)[C@@H](C)CC)C(=O)N[C@@H](Cc1c[nH]c2ccccc12)C(=O)N[C@@H](Cc1c[nH]c2ccccc12)C(=O)N[C@@H](CCCCN)C(=O)NCCOCCOCC(N)=O,broth microdilution,25922,,,1.9 µg/mL
CC[C@H](C)[C@H](N)C(=O)N[C@@H](CCCNC(=N)N)C(=O)N[C@H](C(=O)N[C@@H](Cc1c[nH]c2ccccc12)C(=O)N[C@@H](Cc1ccccc1)C(=O)N[C@H](C(=O)N[C@@H](CCCCN)C(=O)N[C@H](C(=O)N[C@@H](CCCNC(=N)N)C(=O)N[C@@H](CCCCN)C(=O)N[C@@H](Cc1c[nH]c2ccccc12)C(=O)N[C@@H](CCCCN)C(=O)N[C@@H](C)C(=O)N[C@H](C(=O)N[C@@H](Cc1ccc(O)cc1)C(=O)N[C@@H](Cc1c[nH]cn1)C(=O)N[C@H](C(N)=O)[C@@H](C)O)[C@@H](C)CC)C(C)C)[C@@H](C)CC)C(C)C,broth dilution,"ATCC 25922, Mueller-Hinton broth","24 h, 37 °C",,50 µM
CC[C@H](C)[C@H](NC(=O)[C@H](CC(C)C)NC(=O)[C@H](CCCCN)NC(=O)[C@@H](NC(=O)[C@H](C)NC(=O)[C@H](CCC(=O)O)NC(=O)[C@H](Cc1c[nH]cn1)NC(=O)[C@@H](NC(=O)[C@H](CCCCN)NC(=O)[C@H](CCC(N)=O)NC(=O)[C@H](Cc1ccccc1)NC(=O)[C@@H](N)C(C)C)[C@@H](C)CC)[C@@H](C)CC)C(N)=O,broth microdilution,CCARM 1238 resistant,"18 h, 37 °C",,> 128 µM
CC[C@H](C)[C@H](NC(=O)[C@H](CCCCN)NC(=O)[C@H](CCCCN)NC(=O)CNC(=O)[C@H](CCCCN)NC(=O)[C@H](CC(C)C)NC(=O)[C@H](CCCCN)NC(=O)[C@H](CCCNC(=N)N)NC(=O)[C@@H](NC(=O)[C@H](CC(C)C)NC(=O)[C@H](CCCNC(=N)N)NC(=O)[C@@H](N)CCCNC(=N)N)[C@@H](C)CC)C(=O)N[C@@H](Cc1ccc(O)cc1)C(=O)N[C@@H](CC(C)C)C(=O)N[C@@H](Cc1ccc(O)cc1)C(=O)N[C@@H](Cc1ccccc1)C(=O)N[C@@H](CCCCN)C(=O)N[C@@H](CC(C)C)C(=O)N[C@@H](CCC(N)=O)C(=O)N[C@@H](CC(C)C)C(=O)N[C@@H](CC(C)C)C(=O)N[C@@H](CCCCN)C(=O)N[C@@H](CCCCN)C(N)=O,,"KCTC 1682, Mueller-Hinton broth",together with: 4.5 mM KCl,,16 µM
CC[C@H](C)[C@H](NC(=O)CNC(=O)[C@H](CC(=O)O)NC(=O)[C@H](CCCNC(=N)N)NC(=O)[C@@H](NC(=O)[C@H](CC(N)=O)NC(=O)[C@H](CCCNC(=N)N)NC(=O)CNC(=O)[C@@H](NC(=O)[C@H](CCCCN)NC(=O)[C@H](CCC(=O)O)NC(=O)[C@@H](NC(=O)[C@H](CCCCN)NC(=O)[C@H](CCCCN)NC(=O)[C@H](Cc1ccccc1)NC(=O)[C@@H](NC(=O)[C@H](CCCCN)NC(=O)[C@H](Cc1c[nH]c2ccccc12)NC(=O)[C@@H](N)CCCNC(=N)N)[C@@H](C)CC)[C@@H](C)CC)C(C)C)C(C)C)C(=O)N[C@H](C(=O)N[C@@H](CCCCN)C(=O)N[C@@H](C)C(=O)NCC(=O)N1CCC[C@H]1C(=O)N[C@@H](C)C(=O)N[C@H](C(=O)N[C@@H](C)C(=O)N[C@H](C(=O)N[C@H](C(=O)NCC(=O)N[C@@H](CCC(N)=O)C(=O)N[C@@H](C)C(=O)N[C@@H](C)C(=O)N[C@H](C(=O)N[C@@H](C)C(=O)N[C@@H](C)C(=O)N[C@@H](CCCCN)C(N)=O)[C@@H](C)O)C(C)C)C(C)C)C(C)C)[C@@H](C)CC,,"K1 ATCC 700973, Mueller-Hinton broth","16 h, 37 °C",growth inhibition over 99%,2 µM
CC(C)[C@H](N)C(=O)N[C@@H](CC(=O)O)C(=O)N[C@@H](CCCCN)C(=O)N[C@@H](CCCCN)C(=O)N1CCC[C@H]1C(=O)N[C@@H](Cc1ccc(O)cc1)C(=O)N[C@@H](CCCNC(=N)N)C(=O)N1CCC[C@H]1C(=O)N[C@@H](CCCNC(=N)N)C(=O)N1CCC[C@H]1C(=O)N[C@@H](CCCNC(=N)N)C(=O)N1CCC[C@H]1C(=O)N1CCC[C@H]1C(=O)N[C@@H](CCCNC(=N)N)C(N)=O,broth microdilution,MRE600,"16 h, 37 °C, 25% Mueller-Hinton broth",,2 µg/mL
CC(C)Oc1c(NC(=O)c2ccc(NC(=O)[C@H](CC(N)=O)NC(=O)c3ccc(NC(=O)c4ccc(C#N)cc4)cc3)cc2)ccc(C(=O)N/N=C/c2c(F)cc(C(=O)O)cc2F)c1O,,BW25113,"18 h, 37 °C, dark-adapted state",,0.84 µg/mL
CC[C@H](C)[C@H](NC(=O)CNC(=O)[C@H](CC(=O)O)NC(=O)[C@H](CCCNC(=N)N)NC(=O)[C@@H](NC(=O)[C@H](CC(N)=O)NC(=O)[C@H](CCCNC(=N)N)NC(=O)CNC(=O)[C@@H](NC(=O)[C@H](CCCCN)NC(=O)[C@H](CCC(=O)O)NC(=O)[C@@H](NC(=O)[C@H](CCCCN)NC(=O)[C@H](CCCCN)NC(=O)[C@H](Cc1ccccc1)NC(=O)[C@@H](NC(=O)[C@H](CCCCN)NC(=O)[C@H](Cc1c[nH]c2ccccc12)NC(=O)[C@@H](N)CCCNC(=N)N)[C@@H](C)CC)[C@@H](C)CC)C(C)C)C(C)C)C(=O)N[C@H](C(=O)N[C@@H](CCCCN)C(=O)N[C@@H](C)C(=O)NCC(=O)NCC(=O)N[C@@H](C)C(=O)N[C@H](C(=O)N[C@@H](C)C(=O)N[C@H](C(=O)N[C@H](C(=O)NCC(=O)N[C@@H](CCC(N)=O)C(=O)N[C@@H](C)C(=O)N[C@@H](C)C(=O)N[C@H](C(=O)N[C@H](C(=O)N[C@H](C(=O)N[C@@H](CCCCN)C(N)=O)C(C)C)C(C)C)[C@@H](C)O)C(C)C)C(C)C)C(C)C)[C@@H](C)CC,,"KCTC 1682, Mueller-Hinton broth","16 h, 37 °C",growth inhibition over 99%,1 µM
CC[C@H](C)[C@H](NC(=O)[C@H](CCCCN)NC(=O)[C@H](CC(=O)O)NC(=O)[C@H](CC(C)C)NC(=O)[C@@H](NC(=O)[C@H](CC(N)=O)NC(=O)[C@H](CC(C)C)NC(=O)[C@@H](NC(=O)[C@H](Cc1ccccc1)NC(=O)[C@H](CCCCN)NC(=O)[C@H](CCCCN)NC(=O)CNC(=O)[C@H](C)NC(=O)[C@H](CC(N)=O)NC(=O)[C@H](CCCCN)NC(=O)[C@H](Cc1ccccc1)NC(=O)[C@H](CC(N)=O)NC(=O)[C@H](CCC(=O)O)NC(=O)[C@H](Cc1c[nH]c2ccccc12)NC(=O)[C@H](CC(C)C)NC(=O)[C@@H](N)CO)[C@@H](C)CC)[C@@H](C)CC)C(=O)N[C@@H](CCCNC(=N)N)C(N)=O,,ATCC 8739,"overnight, 37 °C, together with: 2 mM CaCl2",,2 µM
CC(C)C[C@H](NC(=O)[C@H](CCCCN)NC(=O)[C@H](CCCCN)NC(=O)[C@H](CCCNC(=N)N)NC(=O)[C@H](Cc1ccccc1)NC(=O)[C@H](CCCNC(=N)N)NC(=O)[C@H](CCCCN)NC(=O)[C@H](Cc1ccccc1)NC(=O)[C@H](CCCNC(=N)N)NC(=O)CN)C(=O)O,,TG1,,,> 25 µM
CCCCCCC/C=C/C(=O)N1CC(=O)/C(=C(\C)O)C1=O,,K12 ΔtolC,,,3.13 µg/mL
CC1(C)SC2C(NC(=O)C(NC(=O)C3=C(O)C(Cc4ccc(O)cc4)NC3=O)c3ccccc3)C(=O)N2C1C(=O)O (stereo not drawn),broth microdilution,BW25113 wild type,18 h,,25 µg/mL
CCN1CCN(C(=O)N[C@@H](C(=O)N[C@@H]2C(=O)N3[C@@H]2SC(C)(C)[C@@H]3C(=O)O)c2ccccc2)C(=O)C1=O,,,,,500 µg/mL
N=C(N)c1ccc(OCc2cccc(COc3ccc(C(=N)N)cc3)c2)cc1,,BW25113 mcr-1,compound alone,,> 100 µg/mL
CC[C@H](C)CCCCC(=O)N[C@@H](CCN)C(=O)N[C@H](C(=O)N[C@@H](CCN)C(=O)N[C@H]1CCNC(=O)[C@H]([C@@H](C)O)NC(=O)[C@H](CCN)NC(=O)[C@H](CCN)NC(=O)[C@H](CC(C)C)NC(=O)[C@@H](Cc2ccccc2)NC(=O)[C@H](CCN)NC1=O)[C@@H](C)O,,K12,24 h,,< 1 µM
CC(C)C1NC(=O)C(C(=O)NC(C(=O)NC2C(=O)N3C2SC(C)(C)C3C(=O)O)c2ccccc2)=C1O (stereo not drawn),broth microdilution,Keio mutant JW5195-1,18 h,,50 µg/mL
CC[C@H](C)[C@H](NC(=O)CNC(=O)[C@H](CC(=O)O)NC(=O)[C@H](CCCNC(=N)N)NC(=O)[C@@H](NC(=O)[C@H](CC(N)=O)NC(=O)[C@H](CCCNC(=N)N)NC(=O)CNC(=O)[C@@H](NC(=O)[C@H](CCC(=O)O)NC(=O)[C@H](CCC(=O)O)NC(=O)[C@@H](NC(=O)[C@H](CCCCN)NC(=O)[C@H](CCCCN)NC(=O)[C@H](Cc1ccccc1)NC(=O)[C@@H](NC(=O)[C@H](CCCCN)NC(=O)[C@H](Cc1c[nH]c2ccccc12)NC(=O)[C@@H](N)CCCNC(=N)N)[C@@H](C)CC)[C@@H](C)CC)C(C)C)C(C)C)C(=O)N[C@H](C(=O)N[C@@H](CCCCN)C(=O)N[C@@H](C)C(=O)NCC(=O)N1CCC[C@H]1C(=O)N[C@@H](C)C(=O)N[C@H](C(=O)N[C@@H](C)C(=O)N[C@H](C(=O)N[C@H](C(=O)NCC(=O)N[C@@H](CCC(N)=O)C(=O)N[C@@H](C)C(=O)N[C@@H](C)C(=O)N[C@H](C(=O)N[C@H](C(=O)N[C@H](C(=O)N[C@@H](CCCCN)C(N)=O)C(C)C)C(C)C)[C@@H](C)O)C(C)C)C(C)C)C(C)C)[C@@H](C)CC,,"K1 ATCC 700973, Mueller-Hinton broth","16 h, 37 °C",growth inhibition over 99%,2 µM
C[C@@H](O)[C@H]1C(=O)N2C(C(=O)O)=C(S[C@@H]3CN[C@H](C(=O)N(C)C)C3)[C@H](C)[C@H]12,,,,,32 µg/mL

# For quick reference, copied from above:
Structure (SMILES),assay,system,conditions,scale,MIC
CC[C@H](C)[C@H](N)C(=O)N[C@@H](CC(C)C)C(=O)NCC(=O)N[C@@H](CCCNC(=N)N)C(=O)N[C@H](C(=O)N[C@@H](Cc1c[nH]c2ccccc12)C(=O)N[C@@H](CCCCN)C(=O)NCC(=O)N[C@H](C(=O)N[C@@H](CCCCN)C(=O)N[C@@H](CC(=O)O)C(=O)N[C@H](C(=O)N[C@@H](CC(C)C)C(N)=O)[C@@H](C)CC)[C@@H](C)CC)[C@@H](C)CC,broth microdilution,"ATCC 25922, Mueller-Hinton broth","16 h, 37 °C",,6.25 µM
CC(C)C1NC(=O)C(C(=O)NC(C(=O)NC2C(=O)N3C2SC(C)(C)C3C(=O)O)c2ccccc2)=C1O (stereo not drawn),broth microdilution,Keio mutant JW5195-1,18 h,,50 µg/mL
CCN1CCN(C(=O)N[C@@H](C(=O)N[C@@H]2C(=O)N3[C@@H]2SC(C)(C)[C@@H]3C(=O)O)c2ccccc2)C(=O)C1=O,,,,,500 µg/mL
